Results collected from several papers.
Lines come from different studies, so protocols differ. Numbers after ± are the reported error.
TDP1: Tyrosyl-DNA phosphodiesterase 1 (TDP1, Homo sapiens, UniProt Q9NUW8)
Sequence of UniProt Q9NUW8 (whole entry, looked up): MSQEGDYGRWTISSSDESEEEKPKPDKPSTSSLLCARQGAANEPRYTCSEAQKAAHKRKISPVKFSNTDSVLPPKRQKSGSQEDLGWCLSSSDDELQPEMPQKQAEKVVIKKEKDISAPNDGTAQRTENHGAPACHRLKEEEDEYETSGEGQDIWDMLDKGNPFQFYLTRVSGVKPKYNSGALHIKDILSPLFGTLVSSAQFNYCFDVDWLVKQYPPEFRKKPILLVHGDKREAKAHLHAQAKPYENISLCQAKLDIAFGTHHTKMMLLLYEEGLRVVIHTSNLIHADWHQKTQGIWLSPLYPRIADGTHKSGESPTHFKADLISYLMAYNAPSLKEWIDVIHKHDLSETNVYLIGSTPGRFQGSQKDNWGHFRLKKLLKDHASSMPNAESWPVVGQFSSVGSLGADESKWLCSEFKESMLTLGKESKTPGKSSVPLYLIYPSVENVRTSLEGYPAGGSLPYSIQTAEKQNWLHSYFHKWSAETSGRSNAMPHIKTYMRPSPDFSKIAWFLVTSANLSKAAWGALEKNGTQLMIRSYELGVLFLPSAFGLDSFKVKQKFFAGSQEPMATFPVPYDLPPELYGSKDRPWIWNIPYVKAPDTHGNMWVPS

SMILES	target or system	test	test system	conditions	how to read	endpoint	result
COC1C=COC2(C)Oc3c(C)c(O)c4c(c3C2=O)C2=NC3(CCN(CC(C)C)CC3)NC2=C(NC(=O)C(C)=CC=CC(C)C(O)C(C)C(O)C(C)C(OC(=O)Nc2cccnn2)C1C)C4=O (stereo not drawn)	THP-1 derived macrophages				baseline: intracellular over extracellular	intracellular/extracellular ratio	23
N=C(N)NCCC[C@@H]1NC(=O)[C@H](CCCNC(=N)N)NC(=O)[C@H](CCCNC(=N)N)NC(=O)[C@@H](C(c2ccccc2)c2ccccc2)NC(=O)[C@H](Cc2c[nH]c3ccccc23)NC(=O)[C@@H](C(c2ccccc2)c2ccccc2)NC(=O)[C@H](CCCNC(=N)N)NC1=O	human red blood cells	haemolysis		2 h, 37 °C		HC50	255 µg/mL
C#Cc1ccc(C=NOCc2ccc3nc(-c4ccccc4)c(Nc4ccc(C(=O)O)cc4)n3c2)cc1	TDP1	enzyme activity, inhibitor		100 µM, unpurified compound		inhibition	51.3%
CN1CCCNC(=O)c2cccc(c2)C(=O)NCCCN(C)CCCNc2cccc3c2C(=O)c2cccc(c2C3=O)NCCC1	Ca9-22	cell growth or viability, CCK-8		5 µM, 48 h		viability	14.1%
O=C(Nc1ccc(O)c(=O)cc1)c1ccccc1	HepDES19	cell growth or viability, MTS		72 h		CC50	> 100 µM
COc1ccc2ncc(F)c(C[C@H](O)[C@H]3OC[C@H](NCc4ccc(Cl)c(Cl)c4)CO3)c2n1	HepG2	cytotoxicity		24 h		IC50	28 µg/mL
O=c1c(O)c(-c2ccc(O)c(O)c2)oc2cc(O)cc(O)c12	MDBK	cell growth or viability, MTT		72 h		CC50	> 256 µg/mL
O=CCNCCOn1c(=O)n(OCCNCCO)c(=O)n(OCCNCCOn2c(=O)n(OCCNCCO)c(=O)n(OCCNCCO)c2=O)c1=O	HUVEC	cell growth or viability, MTT		100 µg/mL, 48 h		viability	22.2%
NC1=C(Cl)C(=O)c2ccccc2C1=O	MRC-5	cytotoxicity, MTT		48 h, 10% FBS		IC50	18.5 ± 0.7 µM
CCCCCCCCCC(=O)Oc1c(C)c(OC)c2c(/C=C/c3ccccc3)c(CCCCCCCC)c(=O)oc2c1C	normal human liver cell line	cytotoxicity, SRB		72 h		IC50	> 50 µM
Cc1cc(O)c(=O)c(O)cc1C(=O)C1CC1	HepDES19	cell growth or viability, MTS		72 h		CC50	72.6 µM
O=S(=O)(NCc1ccncc1)c1ccc(C2CCCCC2)cc1	human iPSC-derived microglia-like cells	caspase-3/7 activation, Caspase-Glo luminescence				TC50	163 nM
CCCCCC(=O)Oc1c(C)c(OC)c2c(c1C)OC(=O)[C@@H](CCCC)[C@]2(O)/C=C/c1ccccc1 (relative stereo)	normal human liver cell line	cytotoxicity, SRB		72 h		IC50	> 50 µM
N=C(N)NCCC[C@@H]1NC(=O)[C@@H](CCCNC(=N)N)NC(=O)[C@H](CCCNC(=N)N)NC(=O)[C@@H](Cc2ccc3ccccc3c2)NC(=O)[C@@H](Cc2ccc3ccccc3c2)NC(=O)[C@@H](Cc2ccc3ccccc3c2)NC(=O)[C@@H](CCCNC(=N)N)NC1=O	human red blood cells	haemolysis		2 h, 37 °C		HC50	150 µg/mL
O=C1NC2(CC2)COc2ncc(F)cc2[C@H]2COCCN2c2ccn3ncc1c3n2	CHL			300 µg/mL, 4 h, with rat liver S9		structural aberrations	0%
Cc1cccnc1-c1csc(C(=O)Nc2cc(Cl)cc(NS(C)(=O)=O)c2)c1	HUASMC	viability, CellTiter-Glo		10 days		CC50	> 10 µM
COC1C=COC2(C)Oc3c(C)c(O)c4c(c3C2=O)C2=NC3(CCN(CC(C)C)CC3)NC2=C(NC(=O)C(C)=CC=CC(C)C(O)C(C)C(O)C(C)C(OC(=O)Nc2cscn2)C1C)C4=O (stereo not drawn)	THP-1 derived macrophages				baseline: intracellular over extracellular	intracellular/extracellular ratio	92
Cc1cc(O)c(=O)c(O)cc1-c1ccccc1	HepDES19	cell growth or viability, MTS		72 h		CC50	47 µM
CCCCCCCC(=O)Oc1c(C)c(OC)c2c(/C=C/c3ccccc3)c(CCCCCC)c(=O)oc2c1C	normal human liver cell line	cytotoxicity, SRB		72 h		IC50	> 50 µM
Cc1nn(C(=O)OC(C)(C)C)c(C)c1C=NOCc1ccc2nc(-c3ccccc3)c(Nc3ccc(C(=O)O)cc3)n2c1 (mixture of isomers)	TDP1	enzyme activity, inhibitor		100 µM, unpurified compound		inhibition	-3.6%

SMILES	target or system	test	test system	conditions	how to read	endpoint	result
O=c1c(O)ccc(-c2ccco2)cc1O	HepDES19	cell growth or viability, MTS		72 h		CC50	25.5 µM
COC1C=COC2(C)Oc3c(C)c(O)c4c(c3C2=O)C2=NC3(CCN(CC(C)C)CC3)NC2=C(NC(=O)C(C)=CC=CC(C)C(O)C(C)C(O)C(C)C(OC(=O)Nc2cnccn2)C1C)C4=O (stereo not drawn)	THP-1 derived macrophages			30 min	baseline: intracellular over extracellular	intracellular/extracellular ratio	31.4
O=C(Oc1cc(OC(=O)c2cc(O)c(O)c(O)c2)c2ccccc2c1)c1cc(O)c(O)c(O)c1	TZM-bl	MTT		5 to 20 µM, 48 h		viability reduction	≤ 20%
CC[C@H](C)[C@@H](C(=O)N[C@@H](Cc1ccc(O)cc1)C(=O)N1CCC[C@H]1C(=O)N[C@@H](Cc1ccccc1)C(=O)O)n1cc(C(Cc2ccc(O)cc2)NC(=O)[C@@H](NC(=O)[C@H](CCCNC(=N)N)NC(=O)[C@@H](N)CC(=O)O)C(C)C)nn1 (stereo partly drawn)	HepG2	cell growth or viability, MTT		200 µM, 24 h		viability	64%
C[N+](C)(CI)CCO	HepG2	cell viability	glucose medium	24 h, mitochondrial toxicity		IC50	> 150 µM
COC(=O)c1c(C)cc(O)c(=O)c(O)c1Br	HepDES19	cell growth or viability, MTS		72 h		CC50	78.4 µM
N=C(N)NCCC[C@@H]1NC(=O)[C@H](CCCNC(=N)N)NC(=O)[C@@H](Cc2ccc3ccccc3c2)NC(=O)[C@H](Cc2c[nH]c3ccccc23)NC(=O)[C@@H](Cc2ccc3ccccc3c2)NC(=O)[C@@H](CCCNC(=N)N)NC(=O)[C@@H](CCCNC(=N)N)NC1=O	human red blood cells	haemolysis		2 h, 37 °C		HC50	255 µg/mL
COC1C=COC2(C)Oc3c(C)c(O)c4c(c3C2=O)C2=NC3(CCN(CC(C)C)CC3)NC2=C(NC(=O)C(C)=CC=CC(C)C(O)C(C)C(O)C(C)C(OC(=O)c2cccnc2)C1C)C4=O (stereo not drawn)	THP-1 derived macrophages			30 min		intracellular/extracellular ratio	1.6
N=C(N)NCCC[C@@H](NC(=O)[C@H](Cc1ccccc1)NC(=O)[C@H](Cc1ccccc1)NC(=O)[C@@H](CCCNC(=N)N)NC(=O)CCCC[C@@H]1SC[C@@H]2NC(=O)N[C@@H]21)C(N)=O	MDBK			100 µM, 10% serum		cytotoxicity	not toxic
COc1ccc2nccc(CC[C@H]3OC[C@H](NCc4ccc(Cl)c(Cl)c4)CO3)c2c1	HepG2	cytotoxicity		24 h		IC50	10.6 µg/mL
Cc1cc(O)c(=O)c(O)cc1C(=O)c1ccc2ccccc2c1	HepDES19	cell growth or viability, MTS		72 h		CC50	28.5 µM
COc1c(C)c(OS(=O)(=O)c2ccccc2)c(C)c(OS(=O)(=O)c2ccccc2)c1C(=O)/C=C/c1ccccc1	normal human liver cell line	cytotoxicity, SRB		72 h		IC50	> 50 µM
COc1ccccc1NC(=O)OC1C(C)C(OC)C=COC2(C)Oc3c(C)c(O)c4c(c3C2=O)C2=NC3(CCN(CC(C)C)CC3)NC2=C(NC(=O)C(C)=CC=CC(C)C(O)C(C)C(O)C1C)C4=O (stereo not drawn)	THP-1 derived macrophages				baseline: intracellular over extracellular	intracellular/extracellular ratio	140
O=C(Oc1cccccc1=O)c1ccccc1	HepDES19	cell growth or viability, MTS		72 h		CC50	98.9 µM
O=C(CCNC(=O)c1ccsc1)Nc1cccc(Oc2ccc(Cl)cc2)c1	HepG2 transfected with LHBs/HBc	CellTiter-Glo		10 µM	direction not given	viability Z-score	0.689
N#Cc1c(-c2ccco2)cc(-c2cccs2)[nH]c1=O	human neural progenitor cells			20 µM, 72 h		viability	< 25%
Cn1ncc(-c2ccc3c(=O)[nH]nc(CN)c3c2)c1-c1c(F)c(Cl)cc(OC2CC2)c1C#N	MRC-5	cell viability, CellTiter-Glo		120 h		CC50	> 3 µM
COc1ccc2ncc(F)c(CC[C@@]3(O)CO[C@@H]4[C@@H](NCc5ccc(Cl)c(Cl)c5)CO[C@@H]43)c2n1	HepG2	cytotoxicity		24 h		IC50	13.2 µg/mL
Cc1cc(O)c(=O)c(O)cc1C(=O)c1ccccc1	HepDES19	cell growth or viability, MTS		72 h		CC50	35.5 µM
